Assay results of several laboratories.
Every numbered part comes from another study and shows a few of its results, in no order.

Block 1
Target: RING finger protein unkempt homolog, zinc fingers 1-6, GST-SBP tag (UNK, Homo sapiens, UniProt Q9C0B0, residues 30-357)
Sequence of UniProt Q9C0B0 (30-357, looked up): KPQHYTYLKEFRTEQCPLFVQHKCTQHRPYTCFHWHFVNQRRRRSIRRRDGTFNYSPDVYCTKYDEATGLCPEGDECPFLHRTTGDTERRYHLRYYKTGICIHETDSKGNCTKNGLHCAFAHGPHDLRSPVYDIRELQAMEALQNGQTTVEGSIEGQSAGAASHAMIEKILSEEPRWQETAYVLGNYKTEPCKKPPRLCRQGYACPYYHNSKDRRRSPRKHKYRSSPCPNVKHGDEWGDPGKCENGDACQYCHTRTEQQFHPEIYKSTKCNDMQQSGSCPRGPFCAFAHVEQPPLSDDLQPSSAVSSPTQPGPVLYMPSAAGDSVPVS
Technique: RNA Bind-n-Seq
Form: RNA
Sample: in vitro
Concentration: not given
Setting: RNA with constant flanks, ends assumed
Reference: input RNA pool
Direction: higher = stronger binding
Quantity: bound/input enrichment
All sequences stand within: GGGAGUUCUACAGUCCGACGAUC … CAACAGAGGAUUGAGCAUCA
GACAUUAUCAAGUUUCUGCAGGAACACGGUUCAGAUUCGUUUCUUGCAGAACAUAAAUUAUCCGGAAACAUUAAAAAUGUGGCCAAGACAGCUAACAAGGACCACUUGGUUACAGCCUAU: 0.233 ratio
ACUUCUUUGAAAAGUCCCAUCAAACAAAUAGCAUGGGAGCAAAAACAGAGGGGCUUUAUUUCCGAUAUGUCUAAUUUUAAGCCUGAAAAGGUAAAACAAAGGUCAUUGUCAGAAGCAAUU: 0.176 ratio
AAACUCAUCCUUAAAGGGGUCAUACUGCUGAUUGUGGACAAAGCCCUAGAAGAGCCAAAGUACCGCUCACUGUAUGCUCAGCUAUGUCUGCGAUUGGCAGAAGAUGCACCAAACUUUGAU: 0.133 ratio
AAUGGGCGGCUGGGACAGGGGAACGCUUGCAGGAUGGACCCCCUACCCCAAGAAUGGAAGUCCGGGGUGGUUGUUUCUCCAUUUAUGGCAUUGGGUUCGGAGAUGGGCCAUGAUGAAGGG: 0.266 ratio
UAGUGACAUGGCCUUUGGGGACAGUACAUGAUUUCUCAUAAUUUGAAUUCAUAGUAGAUACCGUUAAGGGAACAGCAGUCAGGUUAUGAAUCUUUUCCCAUUUUUCUUUUUAAGUAAAUU: 0.826 ratio
UCAGCGUUUGACAAUCCAACUUACGAGACUGGAGAGACGAGAGAAUAUGAAGUCUCCAUCCCGGUGGGGGCAGUCUAGGGAAGUCAACUCAGACUUGCACCACAGUCCAGCAGCAAGGCU: 0.145 ratio
GAAGAUGGGCCUCCAGAACUCCUGUUUAUUCAUGGAGGACACACUGCUAAGAUUUCAGAUUUCCGCUGGAACCCCAAUGAGCCUUGGGUCAUUUGCUCAGUGUCUGAGGAUAACAUCAUG: 0.141 ratio
GCAACUUGGAAAGGCUGUCUUUCAAACUUCAGUUCCUAUCUGACUAAAACAGCCGAUUUCACCGAACAAUCAGUUUUUUACUGGGAACAGGUGACAGAUGGGUUUUUCAUUUUCAAUGAA: 0.158 ratio
UUCUCAGCAUGGGGAAAUAACAGUUCUCAGGGACAGUCUACUCAGAGCUCUGGAUACCGCCGCAAUUAUGCUUAUGCACCUAGCUCCUUAGGUGGAGCCAUGAUUGAUGGACAGUCAGCU: 0.11 ratio
GAACCCUAGCACAAAUUUGCUUUGGGAUUUUCUUUUCUGGAAAAAAAAAAUAAAAGAAACCGUACAUUGAAAACAAAUGAAUUCUCAACUCCUACGGUUCAUGUAGAGUUUAGAGAAAAU: 1.77 ratio
AAAGAUCCUAACAUGAAAGGUGCAAUGCUUACAAACACUGGAAAAUAUGCAAUACCAACUACCGAUGCAGAGGCCUAUGCAAUCGGGAAGAAAGAGAAACCACCCUUCUUACCAGAGGAG: 0.232 ratio

Block 2
Target: Ras GTPase-activating protein-binding protein 1, C-terminal RGG region (G3BP1, Homo sapiens, UniProt Q13283)
Sequence of UniProt Q13283 (whole entry, looked up): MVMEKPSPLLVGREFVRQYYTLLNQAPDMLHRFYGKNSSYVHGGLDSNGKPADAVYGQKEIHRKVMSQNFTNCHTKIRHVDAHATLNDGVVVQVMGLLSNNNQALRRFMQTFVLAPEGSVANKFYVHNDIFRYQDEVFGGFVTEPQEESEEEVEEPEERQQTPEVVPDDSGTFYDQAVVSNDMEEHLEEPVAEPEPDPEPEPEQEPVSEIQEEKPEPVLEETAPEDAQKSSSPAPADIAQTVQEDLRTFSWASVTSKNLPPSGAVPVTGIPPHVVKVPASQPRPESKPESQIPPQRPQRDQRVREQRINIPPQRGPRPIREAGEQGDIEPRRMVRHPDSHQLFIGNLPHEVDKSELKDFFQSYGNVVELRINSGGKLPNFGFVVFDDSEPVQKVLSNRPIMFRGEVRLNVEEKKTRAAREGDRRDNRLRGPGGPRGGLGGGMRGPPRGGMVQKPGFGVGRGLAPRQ
Technique: RNA Bind-n-Seq
Form: RNA
Sample: in vitro
Concentration: 1 µM
Setting: whole 134-nt RNA, ends assumed
Added: 150 mM KCl
Reference: input library
Direction: higher = stronger binding
Quantity: log2 enrichment
All sequences stand within: GGGAGUUCUACAGUCCGACGAUC … UGGAAUUCUCGGGUGUCAAGG
AGUCCUGUGCUACACAUCGUAUGUACCGAAUCGGGGUGGGGUUUUUGGGGUUUGGGGAAAGUAUUAUGUUACGCCGUUCGGAUCUGCACU: 0.803
CCUCAAGUCCUGUGCUACACAUCGUAUGUACCGAAUCGGAAAGGAGGUUUGGAAAGUAUUAUGUUACGCCGUUCGGAUCUGCACUUCCAG: -0.972
UCCUGUGCUACACAUCGUAUGUACCGAAUCGGGGAAAAAGGGGUUUGGGGAAAAAGGGGAAAGUAUUAUGUUACGCCGUUCGGAUCUGCA: 1.82
CACAGACAACACGCACCCACACAGACACAGAGGGGAGGGGUUGGGAUGGGGACAGGGUGCACAGCAGGGCGGGGUAGGACCCCAGCCCCU: -0.076
UGGGAGGUGGAUCUUGUUUAUUUUUUUAGCUCAUUUCCAGGGGUGGGAAUUUUUUUUUAAUAUGUGUCAUGAAUAAAGUUGUUUUUGAAA: 3.03
ACCAUGCAGGUGGGCAUCUUUGGGAAGUGGGGCAAGGGGAGGAUAGGGAGGGGGGUAACACUUUGGGAACAGGUGGUCCCAGGUCGUUUC: -1.06
UGGGAGGUGGAUUUUGUUUAUUUUUUUAGGUCAUUUCCAGGGGUGGGAAUUUUUUUUUAAUAUGUGUCAUGAAUAAAGUUGUUUUUGAAA: 3.58
CUGUGCUACACAUCGUAUGUACCGAAUCGGAAAAAAAGGGAAAAAAAGGGAAAAAAAGGGGAAAGUAUUAUGUUACGCCGUUCGGAUCUG: -1.51
UGGCCCUGGUGGCAUGCGGGGAGGAAGAGGUGGCCUCAUGGAUCGUGGUGGUCCCGGUGGAUUGUUCAGAGGUGGCCGUGGUGGAGACAG: 2.33
AGUCCUGUGCUACACAUCGUAUGUACCGAAUCGGGGAAAAAGGGGUGGGGUUUGGGGAAAGUAUUAUGUUACGCCGUUCGGAUCUGCACU: 0.937
CUCAAGUCCUGUGCUACACAUCGUAUGUACCGAAUCGGGGCCGGGCCGGCCGGAAAGUAUUAUGUUACGCCGUUCGGAUCUGCACUUCCA: -0.883
UUCACUCUUUGAAGGAACGUGGUACUUAGUUAGGGUGGAUGAAAAGCACAGAAGAACUUACGCUCGGCGUCCCACUCCAAAUGAUGACAC: -0.0571
UGGUCCUGGUGGCAUGCGGGGAGGAAGAGGUGGCCUCAUGGAUCGUGGUGGUCCCGGUGGAAUGUUCAGAGGUGGCCGUGGUGGAGACAG: 1.89
GCAGGAAGUAAAAACAAAUGGAAAUGCUUCGGAUAGUGGCAGGCGUGGGGGUUGCUAAGGAAAGGGUGGGAUGGGAGUGGGUAAAGAGUU: 1.77

Block 3
Target: RNA binding protein fox-1 homolog 2, RRM domain, GST-SBP tag (RBFOX2, Homo sapiens, UniProt O43251-10, residues 100-194)
Technique: RNA Bind-n-Seq
Form: RNA
Sample: in vitro
Concentration: 365 nM
Setting: natural RNA segment, single round, ends assumed
Reference: no-protein control
Direction: higher = stronger binding
Quantity: RBNS enrichment (R)
All sequences stand within: GGGAGUUCUACAGUCCGACGAUC … UGGAAUUCUCGGGUGCCAA
Target sequence (chain): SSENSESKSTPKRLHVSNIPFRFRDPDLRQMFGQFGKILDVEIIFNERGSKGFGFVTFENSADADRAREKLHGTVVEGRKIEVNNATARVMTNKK
GCCCCACGCUGCUGCUAACGACAGUAUGAUGCUUACUCUGCUACUCGGAAACUAUUUUUAUGUAAUUAAUGUAUGCUUUCUUGUUUAUAAAUGCCUGAUUUAAAAAGAAA: 12.1
UGGACUAUCCAAUUCAGGAAGCAGGAAAGCAGCCAGGAAAUGUGCUUCUGUUUUGCCAGUUAUUUCCGACAGUACUAUCAGAAGGAAGUGGUCAGCAGCUGUUCCUAGCC: 0.338
CACUUCAGAGGGAUGGAGAAAGAAGUGGAGAAGGUCCUUAACCUGCAGUUUCUGCCUUUAAGCCAAAGAAACAAGCUGUGCGGACCUGGCCCAUUAAGAGGCCUCAGUGG: 0.659
UUCUGUUGGAAAGCCAGCAUGUGAGACCCUUCCACCAUGCCUCAUUCCAGCCCUCCUUGAGCUCACUACUUGACCAGACUGGGUAAUGCAUCACCUCUUCUCAUCAGUGG: 1.94
CCCCGAGGACUGUGGCAUUGUCACCUUCACAGCAGACAGAGCUGCCAGGCCAUGAUGGGCUGGCGACAGCCCGGCUGAGCUUCAGUGAGGUGCCACCAGCACCCGUGCCU: 0.205
GCAAAGUGAGACUGACACCUCACUGAGGAAGGGAGACAUAUUCUUGGAGAACUUUCCAUCUGCUUGUAUUUUCCAUACACAUCCCCAGCCAGAAGUUAGUGUCCGAAGAC: 0.863
UAUAAUGAAAAGAGGAAGAAGUUUGAGAAAAAGACUGAAUAAUAUCUCACGUAAACCUUCCUGAAAGAUAAACGUUUUCCUGAAUUCAGAAACUAGUAGCUAACAUUGCU: 0.579
CCUUAUGUCAUCAGAUUCCUCCUAGGGGAGAGUUUUUGUUUUAAUUACAAAAUUAAAUUCUACAUUGUUACCAAGAAAUUUGUGGUGAUAAAAAUGGAAAAAUAAAAAUU: 0.647
GGGUAGAGCAAUCUGGGCACUUUGGCCAAUUUUAGUCUUGCUGUUUCUUGAUGCUCACCUCUAUAUUAGUUUAUUGUUAGGAUCAAUGAUAAAUUUAAAUGACCUCAGAU: 0.629
GCUGUUUUCGAGUUCAGGUGAAUUAGCCUCAAUCCCCCGUGUUCACUUGGCUCCCAUAGCCCUCUUGAUGGAUCACGUAAAACUGAAAGGCAGCGGGGAGCAGACAAAGA: 0.406
AGCUUCCAGAAGCACGCUGUGUUCUUUUUGCCAAAUAUGUUCAGUUAUAGUCAGCUGAUAGAUUGAUGUGGCUGAAAACAGGACCGAGUGAACUGAUGCUCCCACCUGGG: 0.932
CAGGUCUGGGCAGGGGUCUGAUGGUCCACUGUGGGCUGUUUCCCUAUCCACCCCCCUCCUUGCUGGCCUACUCUGACAUAAUACAAGUGUCUUCUUGCCUUGAGGAACCU: 0.367

Block 4
Target: Interferon regulatory factor 7, full length, phosphomimetic (IRF7, Homo sapiens, UniProt Q92985, residues 1-503, S101K/S471D/S472D/S475D/S476D/S477D/S483D/S484D/S487D)
Technique: protein-binding microarray
Form: double-stranded DNA, one strand shown
Sample: in vitro
Concentration: 250 nM
Setting: 60-bp whole probe
Added: salmon DNA 0.4 mg/ml
Reference: random background probes
Direction: higher = stronger binding
Quantity: log fluorescence
All sequences stand within: GCCTAGCAC … GTCTTGATTCGCTTGACGCTGCTG
Residues (chain): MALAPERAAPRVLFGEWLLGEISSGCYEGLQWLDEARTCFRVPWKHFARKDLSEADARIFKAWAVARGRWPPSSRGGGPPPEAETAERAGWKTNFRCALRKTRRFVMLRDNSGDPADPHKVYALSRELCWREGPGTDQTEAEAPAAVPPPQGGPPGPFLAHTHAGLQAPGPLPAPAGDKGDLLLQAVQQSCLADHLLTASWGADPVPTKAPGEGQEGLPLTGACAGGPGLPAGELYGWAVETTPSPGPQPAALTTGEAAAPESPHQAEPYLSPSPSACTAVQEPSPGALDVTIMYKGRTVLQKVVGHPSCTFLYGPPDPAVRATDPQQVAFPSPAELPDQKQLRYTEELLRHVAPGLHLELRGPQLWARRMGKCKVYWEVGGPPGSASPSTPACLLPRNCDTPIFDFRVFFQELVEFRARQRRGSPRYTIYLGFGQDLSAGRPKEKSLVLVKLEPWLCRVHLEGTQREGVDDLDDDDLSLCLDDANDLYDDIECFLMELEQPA
GGGCCCTGCTGGGAAGTCAGGTGCTAG: -0.0548 z-score
TTAGAACTGGGGACTGGACTAGTGCTA: -0.636 z-score
ACAGAACTCAACTGTCTGCCTGTGCTA: -0.175 z-score
TTAGATCTAAGTCTCGATTAGTGCTAG: 1.72 z-score
GACGGACTGGATTTTCGGGACGTGCTA: -0.731 z-score
TGAGGTTTCCTTATCCTTTAGTGCTAG: 2.09 z-score
GACGATTTAGGGACTGGAGACGTGCTA: -0.489 z-score
GACGATTCCAGTTTCGAGAGGTGCTAG: 2.77 z-score
TTAGGAATGGGTATCGGTTAGTGCTAG: 0.75 z-score
CCGGGGGGCACAGGGTGAGGGTGCTAG: 3.24 z-score
TCAGTTCTCTTTTATTTACTGTGCTAG: 2.73 z-score
TCAACTTGTCTTTTCACACTGTGCTAG: 0.441 z-score
TTAGATCTCAGTATCGTTTAGTGCTAG: 1.23 z-score
AATTAATAACTCGTAGGATCGTGCTAG: -0.0805 z-score
TCAGTTTTCTCTCCCATACTGTGCTAG: 1.09 z-score
GCCGATTTCGGGACTGGAGACGTGCTA: 0.295 z-score
TTCATTTTCTTTAACTCATTGTGCTAG: 1.21 z-score
GACGGTTTCGGATCCGGGACGTGCTAG: 8.28 z-score
TTCGAACTGAGTCTCGATTAGTGCTAG: 1.13 z-score
TTAGGACTGCCTCTCCTTTAGTGCTAG: -0.36 z-score
TTAGGACTGGGTATCGATTAGTGCTAG: 0.839 z-score
CATTTTATGGTATTTTTTTCGTGCTAG: 1.22 z-score
CTTCTTTTTTTTCTTTAAAAGTGCTAG: 1.99 z-score
GACGGACTGTTACTGCTGACGTGCTAG: -0.497 z-score
TTAGGTATCCTATTGCTTTAGTGCTAG: 0.703 z-score

Some of these lines once more (block 4):
GACGGACTGTTACTGCTGACGTGCTAG: -0.497 z-score
TTAGAACTGGGGACTGGACTAGTGCTA: -0.636 z-score
TTAGGACTGCCTCTCCTTTAGTGCTAG: -0.36 z-score
TTCATTTTCTTTAACTCATTGTGCTAG: 1.21 z-score
